# Experimental data from different studies.
# Parts stem from different laboratories: compare values within a part only.
# Chain of UniProt Q13882 (whole entry, looked up): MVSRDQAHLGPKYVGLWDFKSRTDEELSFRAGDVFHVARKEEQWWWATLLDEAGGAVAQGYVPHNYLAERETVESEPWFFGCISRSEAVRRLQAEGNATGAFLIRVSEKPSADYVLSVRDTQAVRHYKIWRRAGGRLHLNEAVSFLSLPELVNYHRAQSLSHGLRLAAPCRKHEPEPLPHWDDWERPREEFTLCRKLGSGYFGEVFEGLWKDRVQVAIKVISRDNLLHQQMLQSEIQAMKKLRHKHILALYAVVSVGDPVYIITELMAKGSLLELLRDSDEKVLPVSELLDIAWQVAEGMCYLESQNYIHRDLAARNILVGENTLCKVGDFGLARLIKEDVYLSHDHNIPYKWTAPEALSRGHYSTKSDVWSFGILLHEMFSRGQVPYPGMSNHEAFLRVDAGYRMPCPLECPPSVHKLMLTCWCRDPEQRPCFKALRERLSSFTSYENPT
# Chain of UniProt Q99640 (whole entry, looked up): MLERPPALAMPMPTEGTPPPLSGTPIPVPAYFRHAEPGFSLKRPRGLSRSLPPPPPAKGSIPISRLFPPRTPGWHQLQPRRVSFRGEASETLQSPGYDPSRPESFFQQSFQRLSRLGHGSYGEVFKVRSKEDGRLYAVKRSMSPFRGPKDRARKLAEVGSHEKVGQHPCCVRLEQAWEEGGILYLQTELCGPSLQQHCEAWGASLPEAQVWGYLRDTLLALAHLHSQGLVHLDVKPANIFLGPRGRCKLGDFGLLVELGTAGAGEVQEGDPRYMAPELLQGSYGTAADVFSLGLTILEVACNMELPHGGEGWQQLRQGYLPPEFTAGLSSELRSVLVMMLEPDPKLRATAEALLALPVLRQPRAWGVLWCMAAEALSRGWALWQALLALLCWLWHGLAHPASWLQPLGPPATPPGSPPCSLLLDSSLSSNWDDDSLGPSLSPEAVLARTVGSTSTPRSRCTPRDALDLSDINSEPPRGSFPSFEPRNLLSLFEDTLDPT
# Chain of UniProt O14757 (whole entry, looked up): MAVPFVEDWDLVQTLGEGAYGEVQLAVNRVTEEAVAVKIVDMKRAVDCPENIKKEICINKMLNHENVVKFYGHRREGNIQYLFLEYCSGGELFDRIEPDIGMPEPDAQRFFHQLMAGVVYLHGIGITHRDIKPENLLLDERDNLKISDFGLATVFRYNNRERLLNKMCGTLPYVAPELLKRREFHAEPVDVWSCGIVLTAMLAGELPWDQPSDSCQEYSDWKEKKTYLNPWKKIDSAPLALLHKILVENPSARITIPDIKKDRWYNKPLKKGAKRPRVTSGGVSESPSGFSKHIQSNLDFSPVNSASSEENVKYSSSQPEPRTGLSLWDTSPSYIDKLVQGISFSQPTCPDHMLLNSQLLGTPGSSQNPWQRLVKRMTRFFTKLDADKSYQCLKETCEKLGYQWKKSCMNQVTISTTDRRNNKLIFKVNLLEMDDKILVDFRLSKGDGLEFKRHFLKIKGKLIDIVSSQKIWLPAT
# Chain of UniProt P27361 (whole entry, looked up): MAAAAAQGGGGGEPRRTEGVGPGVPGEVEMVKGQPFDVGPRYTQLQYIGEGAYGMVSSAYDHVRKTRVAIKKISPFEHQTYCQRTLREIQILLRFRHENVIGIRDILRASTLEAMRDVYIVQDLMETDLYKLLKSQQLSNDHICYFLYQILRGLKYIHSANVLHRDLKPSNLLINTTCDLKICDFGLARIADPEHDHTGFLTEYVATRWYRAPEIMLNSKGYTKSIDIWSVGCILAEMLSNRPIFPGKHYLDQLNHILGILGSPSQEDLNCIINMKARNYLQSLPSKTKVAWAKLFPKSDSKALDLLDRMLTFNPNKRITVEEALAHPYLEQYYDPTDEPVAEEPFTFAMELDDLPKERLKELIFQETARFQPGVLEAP
# Chain of UniProt Q13705 (whole entry, looked up): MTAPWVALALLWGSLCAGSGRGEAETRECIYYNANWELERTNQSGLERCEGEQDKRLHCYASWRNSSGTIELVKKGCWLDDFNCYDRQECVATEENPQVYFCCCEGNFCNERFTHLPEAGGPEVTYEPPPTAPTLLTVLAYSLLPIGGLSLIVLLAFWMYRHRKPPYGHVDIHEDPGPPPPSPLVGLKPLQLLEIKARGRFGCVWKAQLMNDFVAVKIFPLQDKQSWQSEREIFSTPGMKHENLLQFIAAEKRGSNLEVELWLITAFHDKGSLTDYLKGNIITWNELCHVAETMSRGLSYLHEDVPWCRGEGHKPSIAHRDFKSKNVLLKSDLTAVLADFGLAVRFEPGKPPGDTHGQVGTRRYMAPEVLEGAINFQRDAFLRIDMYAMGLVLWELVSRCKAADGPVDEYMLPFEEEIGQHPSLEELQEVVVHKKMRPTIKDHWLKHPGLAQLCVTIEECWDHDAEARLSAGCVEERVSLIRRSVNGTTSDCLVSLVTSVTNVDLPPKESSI

# Study 1 — observed: enzyme activity; mode: inhibitor; concentration: 0.5 µM; baseline: control
# Target: Dual specificity protein kinase TTK (TTK, Homo sapiens, UniProt P33981)
# Target sequence (P33981 1-857): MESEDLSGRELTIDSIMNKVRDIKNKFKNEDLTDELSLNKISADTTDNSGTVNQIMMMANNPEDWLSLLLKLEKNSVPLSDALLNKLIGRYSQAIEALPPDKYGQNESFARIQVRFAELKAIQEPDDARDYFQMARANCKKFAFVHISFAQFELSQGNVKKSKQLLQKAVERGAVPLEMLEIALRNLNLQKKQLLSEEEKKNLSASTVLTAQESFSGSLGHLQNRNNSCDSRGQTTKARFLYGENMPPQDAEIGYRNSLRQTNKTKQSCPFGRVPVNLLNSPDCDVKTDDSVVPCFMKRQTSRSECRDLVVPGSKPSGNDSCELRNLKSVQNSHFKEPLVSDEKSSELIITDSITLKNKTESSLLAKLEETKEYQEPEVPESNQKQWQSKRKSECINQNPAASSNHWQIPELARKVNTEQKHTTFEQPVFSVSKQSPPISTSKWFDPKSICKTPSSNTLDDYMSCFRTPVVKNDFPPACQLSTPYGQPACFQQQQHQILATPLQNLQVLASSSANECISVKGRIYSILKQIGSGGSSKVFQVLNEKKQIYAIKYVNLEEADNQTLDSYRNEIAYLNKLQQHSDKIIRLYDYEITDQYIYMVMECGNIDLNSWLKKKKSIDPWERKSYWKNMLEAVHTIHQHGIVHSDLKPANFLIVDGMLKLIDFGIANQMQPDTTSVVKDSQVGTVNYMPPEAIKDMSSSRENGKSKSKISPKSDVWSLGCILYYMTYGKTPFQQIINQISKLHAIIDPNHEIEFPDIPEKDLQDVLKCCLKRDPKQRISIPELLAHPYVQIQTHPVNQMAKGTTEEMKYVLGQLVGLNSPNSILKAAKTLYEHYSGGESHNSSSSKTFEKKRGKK
SMILES,remaining activity [%]
O=C(CCCc1ccc(-c2ccccc2F)cc1)Nc1ccc(O)cc1,89.5
COc1ccc(CNC(=O)Nc2ncc([N+](=O)[O-])s2)cc1,98.9
Cc1nc(-c2ccccc2)c(-c2ccncc2)o1,100
NCCNc1ncc(C(N)=O)c(Nc2cccc(C(F)(F)F)c2)n1,112
O=C(O)c1ccc2c3c1cccc3c(=O)n1c3ccccc3nc21,81
COc1cc2ncnc(Nc3ccc(Oc4ccccc4)cc3)c2cc1OC,90
Cn1c2ccccc2c2c3c(c4c5ccccc5n(CCC#N)c4c21)CNC3=O,69
Nc1ccc2ncnc(NCCc3ccc(Oc4ccccc4)cc3)c2c1,97.6
O=S(=O)(c1cccc2cnccc12)N1CCCNCC1,99.1
COc1cc2ncnc(Nc3ccc(F)c(Cl)c3)c2cc1OCCCN1CCOCC1,96.3
O=C1NC(=O)C(c2cn(CCCn3ccnc3)c3ccccc23)=C1Nc1ccccc1,121
O=c1c2ccccc2[nH]c(=S)n1CCN1CCC(=C(c2ccc(F)cc2)c2ccc(F)cc2)CC1,96.3
Nc1ncnc2n[nH]c(Nc3ccc(F)cc3)c12,96.1
O=C(Nc1cccc(Nc2cc(Nc3cccc(C(F)(F)F)c3)ncn2)c1)C1CC1,98.7

# Study 2 — Structure (SMILES): CC(C)(O)c1cncc(-c2nc3ccc(F)cc3n2C2CC2)c1; observed: cell-free assay; technique: competition with immobilised ligand; concentration: 1 µM
target,remaining binding
"Activin receptor type-2B (ACVR2B, Homo sapiens, UniProt Q13705)",85%
"Mitogen-activated protein kinase 3 (MAPK3, Homo sapiens, UniProt P27361)",100%
"Serine/threonine-protein kinase Chk1 (CHEK1, Homo sapiens, UniProt O14757)",100%
"Protein-tyrosine kinase 6 (PTK6, Homo sapiens, UniProt Q13882)",100%
"Membrane-associated tyrosine- and threonine-specific cdc2-inhibitory kinase (PKMYT1, Homo sapiens, UniProt Q99640)",100%

# Study 3 — technique: RNA Bind-n-Seq; molecule type: RNA; sample: in vitro; concentration: 365 nM; baseline: no-protein control; reading: higher = stronger binding
# Target: RNA binding protein fox-1 homolog 2, RRM domain, GST-SBP tag (RBFOX2, Homo sapiens, UniProt O43251-10, residues 100-194)
# Setting: natural RNA segment, single round, ends assumed
# Shared flanks, not repeated: GGGAGUUCUACAGUCCGACGAUC … UGGAAUUCUCGGGUGCCAA
# Construct (chain): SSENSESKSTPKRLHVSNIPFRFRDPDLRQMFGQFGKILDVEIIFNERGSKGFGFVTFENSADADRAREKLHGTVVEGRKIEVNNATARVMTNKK
Strand,RBNS enrichment (R)
GUAGUCUUGUGCUGUCUCCUGUCCUCGUCCAUUUUAGAGCAAGACGGGAGGAAAAGGCAUUUCCAGCCCAGAACAAGGUCUAAUGCCAAUAAAUGGGAGGAAUGGGUGUA,0.345
CUCAAAAGUGAGGAAAAUGGAUGUUUUAAAAUGGUAUUUUCAAUUUUUUAUAAGCAAAAUUUUGUAUGUUAUUGUAUAGUAUUUAUUUGAUCUUAUUUACUUUAUGCUAC,2.19
CAGGCCAGUGUCUGCAGAGCCUCAGUUACCAGGUUUGGUUUCUGAGUGCCUAUCUGUGCUCUUUCCUCCCUCUGCGGGCUUCUCUUGCUCUGAGCCUCCCUUCCCCAUUC,0.26
GAUGGGGCGGGAGGGCCAGACUCAGUGCUGCUGUGGAGCUAGGUGCUUCCCCCUUCCCCUGAGACUGGUGGACUGAACUCCAGUCAAGUUGAGUUCAAGUGAAAGAUUCU,0.411
UUUUGGUUUUUGGUUUUUUUAUCCUUUUACUCCAAUACUCCCCCUGUCACUUUGCCUGGAGGUGCUUCAAGCCUUUAACAAGGAGCAGAGAAGAAUUGGAGCCAGACUUU,0.288
UGCAUUAAAUAUUGGGCAAAAUUGCACUUGACUAAUUUUUUGAAGAAAAGUAAUUUAUUCUGUCAAGAAAUAAAAAAAUAGGCUUUGUGUAUGGUUAAACUGUAAAUCUU,0.545
AUGCUCCCCUGAGCUAUAACCCCAGAAACUCUGCACUUUAUCAAGAAAGGACCCCCUCCUUAUGGAUUGCCUUGGCUUUGACCCUGAGCUAAGGCUGGCCCUAUUCCAUC,0.963
GCUGCCAUUCUUCAUCUCCACUGAGAGCCAGAGCUGGUAGGAGCCGAGUGCCACAGGCAUUCUGCAUUGCUCUACUCUUAGGUUUGUGUGUGUGAUCCUUCCCCUCCCUG,0.455

# Study 4 — technique: EMSA with sequencing; molecule type: double-stranded DNA, one strand shown; sample: in vitro; concentration: 10 and 20 nM; baseline: negative control set to 0; reading: higher = stronger binding
# Target: Hepatocyte nuclear factor 3-alpha (Foxa1, Mus musculus, UniProt P35582, residues 1-468, full length assumed)
# Setting: whole designed probe, mean of two concentrations, ends assumed
# Shared flanks, not repeated: GTGAGCGGTGCCCATTGATGGGGAAC … TTTCACTGGGATCGTGGGGAC
# Construct (chain): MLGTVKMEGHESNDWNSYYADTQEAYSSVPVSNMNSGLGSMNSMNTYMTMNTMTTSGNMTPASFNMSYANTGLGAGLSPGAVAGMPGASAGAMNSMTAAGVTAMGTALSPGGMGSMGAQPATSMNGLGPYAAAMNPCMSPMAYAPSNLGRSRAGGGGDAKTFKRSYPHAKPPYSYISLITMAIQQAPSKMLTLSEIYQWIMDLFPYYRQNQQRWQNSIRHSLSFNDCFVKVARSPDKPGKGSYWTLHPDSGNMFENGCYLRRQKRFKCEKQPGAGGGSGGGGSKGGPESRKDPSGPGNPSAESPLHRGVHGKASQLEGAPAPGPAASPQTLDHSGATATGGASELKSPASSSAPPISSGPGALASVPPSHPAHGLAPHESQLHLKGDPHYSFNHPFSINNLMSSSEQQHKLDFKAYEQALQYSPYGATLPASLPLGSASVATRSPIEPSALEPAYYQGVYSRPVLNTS
Strand,normalised bound fraction
CTAAAGATGTTTTTTTCTTTTTAAATAAAGTAGATGTGGAGTTTTATCAAATTTTTTTCTGCACCTATTGATGGTTGTAATTTTTTTCAATAAGTAATCTTGGTAAGCTAATTGATTTTCTTGTGTAAAACCATCTTTAACATTCCTGAGGTAAACACTACTGGATTTTTTTGCTAATATTTTGCTAATGGTC,0.0444 ratio
ATCTTCCCCCTCTTCCTTGCCCCACCAGCTCACCTTCCCGGGTTATTTGCAGATAGGAAAATAAATAAAGCCGGCATTCGTTAACGATGAATCATGGCATACTGCCAGAGCAAACAGATCTAACATGGTCCTTTGGCGACGCCAGGCTCCGGGAGAGCAAAGCACCGTGTCAGGGCCATGATCCGGGGTGGCC,0.386 ratio
GCCTAGTGCACATCCCAGCCCTGCCTCCTGCCCCGCCTGCACGCCATGAGTGCTGAAGTCATGCCTGGCAGGGGCTGCTGGCCCAGGCCCAGAGTAAACACACTGCGCTGAGCTCGCTGGTGTGCTGCTGGATGCTGATGAGCTTGAGGAGTGTGGGAAGTGAGCATGGGGCTGAGTAGAGATGCGGCAGGCC,0.248 ratio
ATTTTTTTTTTCTTCCTTGCCCCACCAGCTCACCTTCCCGGGTTATTTGCAGATAGGAAAATAAATAAAGCCGGCATTCGTTAACCCTCTTCTGGCGCAAACTGCTGTTTGCTCTGGATGAATCATGGTCCTTTGGCGACGCCAGGCTCCGGGAGAGCAAAGCACCGTGTCAGGGCCATGATCCGGGGTGGCC,0.319 ratio
CTTCTCCAGTTGAGTTTTCTTCATTCTGCAAATATGTGGCATTGGAAGCTGGAAAGAGGCTACTTGGCTGAAACCTTTCTGATGGAGTCTATGTAATCTTACAGAAGAAAAAATGTGTAACTAAGGTTCATATCCCTTAAAAAGAATATGTAGACAATTCAAGTGGCTGTATTAAAAGTTTCACATTCTACCA,0.0368 ratio
GGCCTGCCGCATCTCTACTCAGCCCCATGCTCACTTCCCACACTCCTCAAGCTCATCAGCATCCAGCAGCACACCAGCGAGCTCAGCGCAGTGTGTTTACTCTGGGCCTGGGCCAGCAGCCCCTGCCAGGCATGACTTCAGCACTCATGGCGTGCAGGCGGGGCAGGAGGCAGGGCTGGGATGTGCACTAGGC,0.266 ratio
TCTAGATTCTTTTCCTTAATCTGTAAATCCTCACAATCTTCCTGTTTTCTCTTCTCCCTATGATCCACTGTGCCCTAAATACCAATGTATTTAAGATTACAGTAAAATTACGATATCTTAGTCATCCTAACTTGGCCAAACAGAAAAATTTATATACATTTGTTAAAATTATATAGCCTCTCTCATTTATCTG,-0.0259 ratio
CCACATGACTCATAAATAGATGGAAAGACACTCAACCACTTCAGTAGCCAAGCAAATTCAAACACACATCACAATGAGGTATTACTATACTCTGCAAACACCAAGTATCGGCAAGGATGTCGAGCGACAGGGAGTCCCGTGCACTGCCAGGGGAGGTGTGAATCGGCACATCCAGGTGGGAAAGCAAAGTGGC,0.108 ratio

# Some of these lines once more (study 4):
Strand,normalised bound fraction
GCCTAGTGCACATCCCAGCCCTGCCTCCTGCCCCGCCTGCACGCCATGAGTGCTGAAGTCATGCCTGGCAGGGGCTGCTGGCCCAGGCCCAGAGTAAACACACTGCGCTGAGCTCGCTGGTGTGCTGCTGGATGCTGATGAGCTTGAGGAGTGTGGGAAGTGAGCATGGGGCTGAGTAGAGATGCGGCAGGCC,0.248 ratio
CCACATGACTCATAAATAGATGGAAAGACACTCAACCACTTCAGTAGCCAAGCAAATTCAAACACACATCACAATGAGGTATTACTATACTCTGCAAACACCAAGTATCGGCAAGGATGTCGAGCGACAGGGAGTCCCGTGCACTGCCAGGGGAGGTGTGAATCGGCACATCCAGGTGGGAAAGCAAAGTGGC,0.108 ratio
GGCCTGCCGCATCTCTACTCAGCCCCATGCTCACTTCCCACACTCCTCAAGCTCATCAGCATCCAGCAGCACACCAGCGAGCTCAGCGCAGTGTGTTTACTCTGGGCCTGGGCCAGCAGCCCCTGCCAGGCATGACTTCAGCACTCATGGCGTGCAGGCGGGGCAGGAGGCAGGGCTGGGATGTGCACTAGGC,0.266 ratio
CTAAAGATGTTTTTTTCTTTTTAAATAAAGTAGATGTGGAGTTTTATCAAATTTTTTTCTGCACCTATTGATGGTTGTAATTTTTTTCAATAAGTAATCTTGGTAAGCTAATTGATTTTCTTGTGTAAAACCATCTTTAACATTCCTGAGGTAAACACTACTGGATTTTTTTGCTAATATTTTGCTAATGGTC,0.0444 ratio
